Assay results pooled from the literature.
Numbered parts are unrelated; each lists some results of a single study. Changes are numbered by the printed parent chain.

Block 1
Target: CCNE2, cyclin fold, Cln2 fusion (human)
Method: yeast growth competition, sequencing
Matrix: yeast
Setting: weak parent motif
Relative to: not given
Direction: higher = stronger binding
Quantity: normalised enrichment score
Parent: CDC6 docking peptide (human); TLKGRRLVFDNQL; partner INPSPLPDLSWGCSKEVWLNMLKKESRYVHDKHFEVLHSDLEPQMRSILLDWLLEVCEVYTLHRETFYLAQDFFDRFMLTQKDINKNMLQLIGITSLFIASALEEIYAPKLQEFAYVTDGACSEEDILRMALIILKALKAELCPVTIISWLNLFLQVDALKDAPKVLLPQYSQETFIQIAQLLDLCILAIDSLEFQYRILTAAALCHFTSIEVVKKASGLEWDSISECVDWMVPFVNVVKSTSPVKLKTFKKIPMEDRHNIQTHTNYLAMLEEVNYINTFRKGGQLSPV
TLKGRRLVFDNML [Q12M]: 0.651
TLKGNRLVFDNQL [R5N]: -0.0277
TLKGRRLVFDGQL [N11G]: 0.549
TLKGRGLVFDNQL [R6G]: -0.263
TLKGRLLVFDNQL [R6L]: 0.131
TSKGRRLVFDNQL [L2S]: -0.805
TLKMRRLVFDNQL [G4M]: 1.02
TLKGRRGVFDNQL [L7G]: 0.816
TLKGRRLVFTNQL [D10T]: 0.47
TLKGRRLVFINQL [D10I]: 0.58
WLKGRRLVFDNQL [T1W]: 1.82
PLKGRRLVFDNQL [T1P]: 0.857

Block 2
Target: ABI1, truncated, D143A, DHFR fusion (Arabidopsis thaliana)
Method: DHFR PCA, deep sequencing
Matrix: yeast
Setting: methotrexate growth selection, single substitutions
With: (+)-ABA 17 µM
Relative to: wild-type fitted maximum
Direction: higher = stronger binding
Quantity: relative binding score
Parent: PYL1, truncated, DHFR fusion (Arabidopsis thaliana); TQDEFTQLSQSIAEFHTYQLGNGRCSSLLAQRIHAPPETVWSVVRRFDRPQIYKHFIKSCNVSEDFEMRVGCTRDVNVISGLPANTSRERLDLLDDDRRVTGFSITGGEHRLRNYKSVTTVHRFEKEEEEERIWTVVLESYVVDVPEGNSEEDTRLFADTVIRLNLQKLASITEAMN
W134K: 59.5%
L8T: 42.2%
E130N: 82.2%
L93K: 71.1%
I133D: 110%
N177P: 37.7%
C25Y: -6.09%
N165R: -0.166%
K116M: 16.7%
L91C: 48.1%
E139R: 1.28%

Block 3
Target: Histone acetyltransferase KAT6A, both winged helices, GST fusion (KAT6A, Homo sapiens, UniProt Q92794, residues 1-181)
Method: protein binding microarray
Form: double-stranded DNA, one strand shown
Matrix: in vitro
Concentration: not given
Setting: 8-mer, flanks averaged, mean of 2 arrays, mostly near background
Relative to: not given
Direction: higher = stronger binding
Quantity: E-score
Target sequence (chain): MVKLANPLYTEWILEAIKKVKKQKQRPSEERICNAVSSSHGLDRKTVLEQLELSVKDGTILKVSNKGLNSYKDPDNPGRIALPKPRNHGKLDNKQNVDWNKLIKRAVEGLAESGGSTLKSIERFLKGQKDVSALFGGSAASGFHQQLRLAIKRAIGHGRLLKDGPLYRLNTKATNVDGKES
ATCTAGGG: -0.301
CTCCGAAG: -0.0149
GGAGAGGA: -0.118
GTGTGTAA: -0.121
CCCCAACG: -0.0378
ATCACATA: -0.0485
AAGTGGGT: -0.162
GTGAACTA: 0.0204
CGCTCATA: 0.063
GGCTCCCC: -0.12
CCCCCTGA: -0.163
TAAAGCAA: -0.12
AGCGTCAC: 0.0819
CTAATAGC: -0.0822
GCCGCACC: 0.195
CAGTGAAA: 0.052
CAAGTGCG: 0.153
GAAATATA: -0.0602
AACTCTTG: -0.376
ACGGCAAA: 0.299

Other studies, line by line
PhoQ, residues 284 288 289 292 302 303 SLSLLA — fold induction (PhoP, residues 12 14 15 18 19 LWHVM (Escherichia coli, UniProt P23836); Sort-seq, item: YFP reporter; E. coli; PhoQ-PhoP variant library, with: 10 µM Mg2+; relative to: high Mg2+ state, higher = stronger signaling): 14.7
